Experimental data collected from several papers.
Every numbered part comes from another study and shows a few of its results, in no order. Changes are numbered by the printed parent chain.

Series 1 — method: aptamer microarray, sandwich; form: DNA with 2'F-ANA; sample: in vitro; tested at: 200 nM; added: Cy3 exosite-II aptamer, 400 nM; direction: higher = stronger binding; strand: GGTTGGTGTGGTTGG
Target: Prothrombin, mature alpha-thrombin (F2, Homo sapiens, UniProt P00734)
Notes: whole 15-mer aptamer, many near background
`2'F-ANA at 3 5 7 8 10 12 13 14` — result for “mean fluorescence intensity”: 51.4 a.u.
`2'F-ANA at 1 5 9 10 12 13 14 15`: “mean fluorescence intensity” 43.1 a.u.
`2'F-ANA at 2 3 4 5 9 13 14` — result for “mean fluorescence intensity”: 50.1 a.u.
For `2'F-ANA at 5 6 8 9 10 12 13 15`, “mean fluorescence intensity” read 52.1 a.u.
For `2'F-ANA at 2 3 5 7 9 10 13 14 15`, “mean fluorescence intensity” read 52 a.u.
`2'F-ANA at 1 3 4 6 8 9 10 11 13 15`: “mean fluorescence intensity” 63 a.u.
`2'F-ANA at 1 2 5 7 9 10 14`: “mean fluorescence intensity” 46.7 a.u.
Under “mean fluorescence intensity”, `2'F-ANA at 1 2 3 5 6 7 10 12 13 15` is recorded as 51.5 a.u.
Under “mean fluorescence intensity”, `2'F-ANA at 1 4 5 6 7 8 10 12 13 14 15` is recorded as 47.3 a.u.
`2'F-ANA at 3 4 6 8 9`: “mean fluorescence intensity” 637 a.u.
`2'F-ANA at 1 3 4 5 6 7 9 10 11 12 14`: “mean fluorescence intensity” 47.4 a.u.
Under “mean fluorescence intensity”, `2'F-ANA at 1 4 7 9 10 11 13` is recorded as 52.7 a.u.
For `2'F-ANA at 1 3 4 5 6 7 8 10 11 13 14`, “mean fluorescence intensity” read 47.3 a.u.
Under “mean fluorescence intensity”, `2'F-ANA at 2 3 6 8 9 11 12 15` is recorded as 815 a.u.
For `2'F-ANA at 3 5 6 7 8 9 11 12 13 14 15`, “mean fluorescence intensity” read 56.9 a.u.
Under “mean fluorescence intensity”, `2'F-ANA at 2 4 5 6 7 8 11 14 15` is recorded as 45.3 a.u.
For `2'F-ANA at 1 5 6 9 11 12 13`, “mean fluorescence intensity” read 66 a.u.
`2'F-ANA at 2 7 9 11 12 13 15`: “mean fluorescence intensity” 471 a.u.
`2'F-ANA at 1 2 7 8 10 12 13` — result for “mean fluorescence intensity”: 67 a.u.
Under “mean fluorescence intensity”, `2'F-ANA at 1 7 9 10 11 13 14` is recorded as 45.9 a.u.
For `2'F-ANA at 2 6 8 9 10 12 13 14 15`, “mean fluorescence intensity” read 79.5 a.u.
For `2'F-ANA at 8 10 12 13 14 15`, “mean fluorescence intensity” read 95 a.u.
`2'F-ANA at 2 9 10 12 13` — result for “mean fluorescence intensity”: 163 a.u.
`2'F-ANA at 1 3 5 6 8 10 11`: “mean fluorescence intensity” 55.7 a.u.
For `2'F-ANA at 2 7 8 9 10 11 12 13`, “mean fluorescence intensity” read 175 a.u.

Series 2 — method: protein binding microarray; form: double-stranded DNA, one strand shown; sample: in vitro; tested at: not given; baseline: not given; direction: higher = stronger binding
Target: Histone acetyltransferase KAT6A, winged helix 1, GST fusion (KAT6A, Homo sapiens, UniProt Q92794, residues 1-85)
Notes: 8-mer, flanks averaged, mean of 2 arrays, mostly near background
Target sequence (chain): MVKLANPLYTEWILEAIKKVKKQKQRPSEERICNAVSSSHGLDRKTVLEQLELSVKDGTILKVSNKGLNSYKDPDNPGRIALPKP
With `CCTGTGAA` the E-score was -0.171.
The E-score of `CCAACGAG` is reported as -0.25.
`GTGCGCTA` has an E-score of 0.228.
For `ACGTCTGC`, the E-score was 0.0121.
`AGCTTCGC` has an E-score of -0.0355.
`AGTCCATG` has an E-score of -0.109.
With `GATATAAC` the E-score was -0.00888.
`CAGAAGCC` has an E-score of 0.113.
`ACAGGTCG` gave an E-score of -0.0246.
The E-score of `ACTTACTC` is reported as -0.0489.
For `GCGTATAA`, the E-score was 0.174.
`TAAGACTA` has an E-score of -0.214.
With `AATTTCTG` the E-score was -0.207.
For `ACCGCCCG`, the E-score was 0.421.
With `CATTCGAA` the E-score was -0.182.
`GGCAGCAC` has an E-score of -0.032.

Series 3 — method: DHFR PCA, deep sequencing; sample: yeast; added: (+)-ABA 200 µM; baseline: wild-type fitted maximum; direction: higher = stronger binding
Target: ABI1, truncated, D143A, DHFR fusion (Arabidopsis thaliana)
Notes: methotrexate growth selection, single substitutions
Parent: PYL1, truncated, DHFR fusion (Arabidopsis thaliana); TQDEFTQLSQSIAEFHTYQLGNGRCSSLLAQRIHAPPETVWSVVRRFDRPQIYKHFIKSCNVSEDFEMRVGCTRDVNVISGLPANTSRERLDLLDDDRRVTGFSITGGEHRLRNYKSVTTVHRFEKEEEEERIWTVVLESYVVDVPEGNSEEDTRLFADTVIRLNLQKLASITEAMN
Under “relative binding score”, `V70L` is recorded as 91.6%.
Under “relative binding score”, `F5C` is recorded as 95%.
For `K126D`, “relative binding score” read 106%.
For `N22R`, “relative binding score” read 99.7%.
For `D159Q`, “relative binding score” read 64.3%.
`K54V` — result for “relative binding score”: 4.89%.
`K58A`: “relative binding score” 101%.
Under “relative binding score”, `S87R` is recorded as 25.2%.
`Q2C`: “relative binding score” 102%.
`D153I` — result for “relative binding score”: -4.94%.

Series 4 — method: protein-binding microarray; form: double-stranded DNA, one strand shown; sample: in vitro; tested at: 0.8 µM; notes: whole 60-bp probe, no competitor; direction: higher = stronger binding; shared flanks, not repeated: … GTCTTGATTCGCTTGACGCTGCTG
Target: Centromere-binding protein 1, full length, N-terminal tag (CBF1, Saccharomyces cerevisiae, UniProt P17106, residues 1-351)
Sequence of UniProt P17106 (whole entry, looked up): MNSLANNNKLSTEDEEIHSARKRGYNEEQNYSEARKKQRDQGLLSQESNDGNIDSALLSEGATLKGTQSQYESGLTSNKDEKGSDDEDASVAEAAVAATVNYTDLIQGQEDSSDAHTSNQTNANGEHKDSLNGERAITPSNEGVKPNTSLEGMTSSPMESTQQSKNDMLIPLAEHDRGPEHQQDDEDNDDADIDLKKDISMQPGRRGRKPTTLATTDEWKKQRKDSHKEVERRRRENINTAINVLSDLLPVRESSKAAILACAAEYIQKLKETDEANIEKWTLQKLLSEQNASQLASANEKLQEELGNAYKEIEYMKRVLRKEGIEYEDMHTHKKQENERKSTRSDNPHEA
`GAACCCGTGGTGGCGCTGGTGACGAAGAGGATCTAG` gave a fluorescence intensity of 511 a.u.
The fluorescence intensity of `CTAATCACACGCTTGCACGTTGGTTCATATCGTTTC` is reported as 587 a.u.
`TGTACGAAGCTATGTGTGGTGGTTATAGTAGTTAGG` gave a fluorescence intensity of 545 a.u.
`GAAAAATCGCATTGATTCGTCACCGCGCGGTAGTAG` has a fluorescence intensity of 484 a.u.
The fluorescence intensity of `CTATCAGATTCTGGTCATGCTTGTTCAATATACTTC` is reported as 741 a.u.
With `CTAACTTCTCGGCATGGGGTGAGTAAATTCATATTC` the fluorescence intensity was 529 a.u.
With `GAAATTGTCGCTCTCCACGCCACGCTCGAAGGATAG` the fluorescence intensity was 533 a.u.
`GAAACCTATTAATTGCACCTGACTGACGCCTTTTAG` gave a fluorescence intensity of 1370 a.u.
`GAAGGGGCACAAATACAGGTGATTCGAGAAATATAG` has a fluorescence intensity of 631 a.u.
For `CTAATTTAAAGAAATCCCGTCACGCCTGGAATGTTC`, the fluorescence intensity was 765 a.u.
With `CTACTGGAGGTTAATCACCTGTTGTCTTACTATTTC` the fluorescence intensity was 768 a.u.
The fluorescence intensity of `GAACTTAGACCGCACGTGATGATATTGAGAAATTAG` is reported as 11200 a.u.
With `GAAAGATTTTTTCATCTGATGATGTATGGAAAATAG` the fluorescence intensity was 563 a.u.
With `CTAATACATATACTTCTCGTGCAGTATACTGGATTC` the fluorescence intensity was 586 a.u.
With `GAATCTCAGACCCTGAACGTGACCGTCCATCATTAG` the fluorescence intensity was 1900 a.u.
`GAAAACATGGATCTCAGCGTGGTAACATCGCTCTAG` has a fluorescence intensity of 479 a.u.

Series 5 — method: protein-binding microarray; form: double-stranded DNA, one strand shown; sample: in vitro; tested at: 250 nM; notes: 60-bp whole probe; added: salmon DNA 0.4 mg/ml; baseline: random background probes; direction: higher = stronger binding; shared flanks, not repeated: GCCTAGCAC … GTCTTGATTCGCTTGACGCTGCTG
Target: Interferon regulatory factor 5, full length, phosphomimetic (IRF5, Homo sapiens, UniProt Q13568-2, residues 1-514, K96S/S451D/S453D/S456D/S462D)
The log fluorescence of `TATGGTATGCTCATGACAAAGTGCTAG` is reported as -0.165 z-score.
With `TTAGGCCTCCTTATCCTTTAGTGCTAG` the log fluorescence was -0.0537 z-score.
For `CCTTATTTAAGACCTATGCACGTGCTA`, the log fluorescence was 0.399 z-score.
The log fluorescence of `GACGGTCTCGGACTGGGGAAGTGCTAG` is reported as -0.467 z-score.
`TTATGTCTGGGTATTTTTTCGTGCTAG` gave a log fluorescence of 0.692 z-score.
`GACGTTATCGGGACTGGAGACGTGCTA` gave a log fluorescence of 1.03 z-score.
With `TCAGTTTTCTCTCCCATACTGTGCTAG` the log fluorescence was 1.11 z-score.
For `TGCGGTTCAGATATAGGATAGTGCTAG`, the log fluorescence was 0.335 z-score.
For `GACGGTTTCGACTTGCGGGACGTGCTA`, the log fluorescence was 5.88 z-score.
For `TTAGGACTGGTTTTCCTTTAGTGCTAG`, the log fluorescence was 0.355 z-score.
With `TTAGGTATCCTTATCCTGTAGTGCTAG` the log fluorescence was 0.0426 z-score.
`TTAGGTATCCTTATCTTTTAGTGCTAG` has a log fluorescence of 0.541 z-score.
`TCACTTTCCAACTCTGTTACTGTGCTA` has a log fluorescence of 1.21 z-score.
For `GACGGTTTCGGACTGGGGTCGTGCTAG`, the log fluorescence was 4.49 z-score.
With `GACGATATCCTTCTCCTGACGTGCTAG` the log fluorescence was 0.247 z-score.
`TTAGATTTCGGGTTTCGATGAGTGCTA` gave a log fluorescence of 7.92 z-score.
The log fluorescence of `AAAGTTATCACTTCCAAAGTGTGCTAG` is reported as 1.51 z-score.
`GACGGGTTCGGTATCGGGACGTGCTAG` gave a log fluorescence of 0.821 z-score.
For `TCAGTCACCCATCTCAGACTGTGCTAG`, the log fluorescence was -0.117 z-score.
The log fluorescence of `TTAGTTCTCAGTCTCGATTAGTGCTAG` is reported as 1.24 z-score.
`TTAGGTCTCCTTCTCCTTAAGTGCTAG` has a log fluorescence of -0.00441 z-score.
`TGAGGACTGGACACTGGGTTAGTGCTA` gave a log fluorescence of -0.391 z-score.
`GACGGTTCCCTTTTCATGACGTGCTAG` has a log fluorescence of 0.326 z-score.
`TTGGAACTGAGACTGGATTAGTGCTAG` has a log fluorescence of -0.392 z-score.
For `TTAGGTATCGACTTTCGGTTAGTGCTA`, the log fluorescence was 10.2 z-score.

Series 6 — target: CCND2, cyclin fold, Cln2 fusion (human); method: yeast growth competition, sequencing; sample: yeast; notes: weak parent motif; baseline: not given; direction: higher = stronger binding
Parent: RB1 docking peptide (human); PKPLKKLRFDIEG; partner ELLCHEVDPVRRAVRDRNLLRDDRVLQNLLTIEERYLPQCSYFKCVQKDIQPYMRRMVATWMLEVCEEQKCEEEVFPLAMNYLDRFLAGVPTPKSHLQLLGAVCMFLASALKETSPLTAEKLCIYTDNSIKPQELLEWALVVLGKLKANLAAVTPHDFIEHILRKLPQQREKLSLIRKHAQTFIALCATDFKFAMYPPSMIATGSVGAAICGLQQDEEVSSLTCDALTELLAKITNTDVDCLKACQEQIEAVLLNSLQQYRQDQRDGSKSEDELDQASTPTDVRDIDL
For `I11K`, “normalised enrichment score” read 0.115.
`L7W` — result for “normalised enrichment score”: 0.162.
`E12W`: “normalised enrichment score” 0.183.
`R8A` — result for “normalised enrichment score”: 0.116.
Under “normalised enrichment score”, `D10M` is recorded as 0.648.
`K5E`: “normalised enrichment score” 0.0483.
For `R8M`, “normalised enrichment score” read 0.116.
For `D10N`, “normalised enrichment score” read 0.278.
Under “normalised enrichment score”, `K6V` is recorded as 0.108.
For `K2Q`, “normalised enrichment score” read -0.0541.
`K5P` — result for “normalised enrichment score”: 0.335.
`P3N` — result for “normalised enrichment score”: 0.155.
Under “normalised enrichment score”, `G13E` is recorded as 0.623.
`K6D`: “normalised enrichment score” 0.386.
`K6S` — result for “normalised enrichment score”: -0.00936.
Under “normalised enrichment score”, `K2E` is recorded as 0.252.
`L4C` — result for “normalised enrichment score”: 0.544.

Repeated from above (series 2):
`AGCTTCGC` has an E-score of -0.0355.
`AGTCCATG` has an E-score of -0.109.
With `GATATAAC` the E-score was -0.00888.
`CAGAAGCC` has an E-score of 0.113.
`ACAGGTCG` gave an E-score of -0.0246.
The E-score of `ACTTACTC` is reported as -0.0489.
For `GCGTATAA`, the E-score was 0.174.
`TAAGACTA` has an E-score of -0.214.
